Results gathered from unrelated publications.
Parts stem from different laboratories: compare values within a part only. Substitutions count along the parent as printed.

Series 1
Target: CCNE1, cyclin fold, Cln2 fusion (human)
Method: yeast growth competition, sequencing
Matrix: yeast
Notes: weak parent motif
Relative to: not given
Direction: higher = stronger binding
Quantity: normalised enrichment score
Starting sequence: MICAL3 docking peptide (human); LQLRRQLSFSEDS
R4H: 0.0783
S10L: 0.52
D12R: 0.494
Q2E: 1.02
F9Y: 1.12
Q2L: 1.05
F9V: 0.175
L3S: 1.17
R4K: 0.997
Q2Y: 0.946
D12N: 0.978
R5N: 0.233
L3D: 0.0851
L7K: 0.105
R5G: 0.0879
S8P: -0.0977
R4A: 1.26
S8Y: 0.429
F9T: -0.0695
Q6V: 1.59
Q6D: -0.119
L3H: 2.48
S8C: 0.482
L7W: 0.256
R4W: 0.475

Series 2
Target: ABI1, truncated, D143A, DHFR fusion (Arabidopsis thaliana)
Method: DHFR PCA, deep sequencing
Matrix: yeast
Notes: methotrexate growth selection, single substitutions
With: (+)-ABA 0 µM
Relative to: wild-type fitted maximum
Direction: higher = stronger binding
Quantity: relative binding score
Starting sequence: PYL1, truncated, DHFR fusion (Arabidopsis thaliana); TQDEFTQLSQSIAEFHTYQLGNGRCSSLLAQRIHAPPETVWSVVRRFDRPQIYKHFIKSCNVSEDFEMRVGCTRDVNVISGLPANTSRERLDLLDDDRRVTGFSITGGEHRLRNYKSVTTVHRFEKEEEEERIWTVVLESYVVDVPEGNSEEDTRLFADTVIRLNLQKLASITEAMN
P50G: 0.972%
T73N: 11.4%
G21K: 24.2%
T120P: 0.11%
N22C: 9.48%
E109R: -3.01%
A158R: 1.02%
V118F: 4.28%
L94D: -3.78%
E125G: 30.5%
S171Q: 48%
A30D: 3.9%
V142E: 3.56%
E14P: -2.19%
Y141W: -6.2%

Series 3
Target: RING finger protein unkempt homolog, zinc fingers 1-6, SBP tag (UNK, Homo sapiens, UniProt Q9C0B0, residues 30-357)
UniProt Q9C0B0, sequence (30-357, looked up): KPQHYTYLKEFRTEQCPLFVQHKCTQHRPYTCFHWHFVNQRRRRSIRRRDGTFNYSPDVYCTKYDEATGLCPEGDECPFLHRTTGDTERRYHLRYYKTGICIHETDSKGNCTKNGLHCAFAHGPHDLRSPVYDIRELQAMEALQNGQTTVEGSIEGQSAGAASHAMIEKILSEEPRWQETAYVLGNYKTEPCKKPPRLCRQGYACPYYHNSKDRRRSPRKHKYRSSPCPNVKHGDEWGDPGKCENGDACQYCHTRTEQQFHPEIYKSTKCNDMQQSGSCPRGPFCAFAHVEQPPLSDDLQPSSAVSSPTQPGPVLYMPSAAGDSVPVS
Method: RNA Bind-n-Seq
Form: RNA
Matrix: in vitro
Concentration: 100 nM
Notes: RNA with constant flanks, vertebrate orthologous sites, ends assumed
Relative to: input RNA pool
Direction: higher = stronger binding
Quantity: bound/input enrichment
All sequences stand within: GGGAGUUCUACAGUCCGACGAUC … CAACAGAGGAUUGAGCAUCA
CCACUCAUAGGCAAUGUAUAUCUAACAGUGGUUGCAGAACUGAACUUGCACUUGAAUAGGAUUAACUUGUUACAAUUAAGCUACCCAGGUUUCGUUAAACCUGAGAGGCGCUGCUGCGUC: 0.424 ratio
UUUUAUUGAUCAGGUCUGUAAAUGUGUACUAAAAAAAUCAGAGUUUAUUUAUAAGCAGAAUAGUUUAUUUAAAGAGAAGGUCUUUUCCUUAUUGAUAUCAUGGUAUGCAUUAAUUCCAUU: 0.243 ratio
GAAUUGAACAAAAACGUUUCCACUGGGUUUUGCCUGUUUGAAAAUACGUACCUGAGCACAUAGAGCUUUUUAAUAGCACUAACCAAUGCCUUUUUAGAUGUAUUUUUGAUGUAUAUAUCU: 0.714 ratio
AAGGAGUAGAAGUUCAAGAUCAUCCUCAGCUAUAUACCAAGUUUGAGACCAGUUUGGGCUGCAUGAGACUAAAAUGUGGUGGCAUGUGUAGAUCAUUGAAGCUCAAAAACAAGGUCUGGG: 0.524 ratio
CAUCUCUUUUUUAUAUGUCCAUAAAUGGGUUUGAAUUUUUAAACAGUUACUAGUUUUAAUUAGCUCUGCUCUCAUGAAGUAUUAUUACAGUUCACCACAAAUACAACUGUCUGAAUUACU: 0.748 ratio
UAUUAGCGUCAUACCAGCAUAUUAACCUCUCGUCUGUGCACAGCUUCAAAUGUUACCGUCUAGUUAGAUUUUUAUUUAAAAUAUGAAAAACUGCUUUUCCCAAGACGUUUUUUAAAAACA: 1.53 ratio
AGUUUGUAUGUGCAUUAUUCAUUCCUCUCUGUUGUGUUUGGGGAAAGAAAAAAAAGACAUUGAGCCUUUUUUAAGGUUAUUGAUUUAAUUUCAUGUUAUUUGGUUGCAUGAAGUUGCCCU: 0.314 ratio
GCACUGCUUGUGCAAAUUUCACAACACUGAAUGCAAAGUAGAAAUUUUCAUAGUCACAAUAAGGUAGCUGUAGGGUAAUAUUGCCAUGGUUUUACUCAUGUGCAGGUUUUGAAAAUGUAU: 0.849 ratio
UUCAGGCACAACUGACUGGUUCACAGCAUUCCUUACAUAGCUAUCUAUCAAAUGCAAGUGUAGUUAAUUUUCAGGAAACAAGCAGGCAGUCAUCUUUAUCCUGUAGCCCGAUCGGAGAUU: 1.4 ratio
GUUAGGUCAUGACCCUUACAGAUUAGGUCAUGAUGCCUAUAGGUUAGGGCAGGACCCCUAUAGAUUAGGCCACGAUCCCUACAGACUAACACCUGAUCCCUAUAGAAUGUCACCUAGACC: 0.565 ratio
UUACAGUCAUUGAUGGACUCUAUUUUUUUAUUAUUACUUGGACCUUGGUCGUUUUUAUACUAGCAAAAUGUCUUGUUUUAAUUUGUGUUUUUUUUUGGGGGGGUGGGAGUGAACUUGCUG: 1.82 ratio

Series 4
Target: RNA binding protein fox-1 homolog 2, RRM domain, GST-SBP tag (RBFOX2, Homo sapiens, UniProt O43251-10, residues 100-194)
Method: RNA Bind-n-Seq
Form: RNA
Matrix: in vitro
Concentration: 365 nM
Notes: natural RNA segment, single round, ends assumed
Relative to: no-protein control
Direction: higher = stronger binding
Quantity: RBNS enrichment (R)
All sequences stand within: GGGAGUUCUACAGUCCGACGAUC … UGGAAUUCUCGGGUGCCAA
Target sequence (chain): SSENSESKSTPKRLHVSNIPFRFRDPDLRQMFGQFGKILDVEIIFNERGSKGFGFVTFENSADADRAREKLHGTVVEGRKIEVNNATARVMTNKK
GAAAUGCGGACACCCCGAGCGAGCACCCCAAAGUGCACAAAGCUGAGUAAAAAGCUGCCCCCUUCAAACAGAACUAGACUCAGUUUUCAAUUCCAUCCUAAAACUCCUUU: 0.543
CUGCUUCCUUGAUCACAGUUUCAAGAUGUGUUCUUGCUCUCAUCCUUCAUCAUUGACACUGACCCUAAAGAGGUCACUAGAUUUCUCCAAGGUCCUACCAUCUUAUAUGU: 0.239
GUCUGGGCUGGGGCAGGGAUUGCUCAGUGGAAGCAGGACUGGGGGUCUGGCUUGCCCCCUCCCUGGGCCUCCAUCACCCCUGAGCAUCCCUCUGGACUCAGAGGGAACAA: 0.492
UGGUUGAGCCUCUGGAGAUCAUUGUAACCAAUCCUGCCAGACCUGUUUGGGGCAGUGGGGAGCAAACCUAGAUAAGGACCUGUUUGGGGCAGCAGGGAGCAAAAUCUCCU: 0.657
CAGACACAAAGGCCCCUCGGCUGGGGGGCAGUGGGCAUGGAGCUGGCCUGCUAACAGCCCCCCGAUCCGUCAGGGGGAAUAACUCUGGGAGUCACUGGAUAUCAGUGGAG: 0.493
AUGUUGGCCAGGCUGAUUAACUCCUGACCUCAGGUGAUCCACCUUUCUCGGCCUCCCAAAGUGCUGGGAUUACGGGUGUGAGCCACCGUGCCCGGCCUGCAAACACAUUU: 0.44
CCUGUGUGGCGCCGUCCAUCUGGCCACUGCAGUCCAACCUCCACAAGAGAGAAGAACUAAAGAAGUUCUUUUUAUUCCUCGUUACCAAAUAAAUCAUUUCUCUCUUUACC: 0.549
AGAUGCUGAUGUAGCCAGGCCAUGCCGGAAGGAGCAGGGUGAAGCUUCCCCUCUCCCUACAAAUGGAACCUUGUGGAAACAGGAUGCUAAACACCUUCUGAUGGAGCUGU: 0.26
GCUCUCAGUAUUGUGACAGUACAUUUUUACAAGGUUGUUUUUCUACCACCGUAUUUUUAAAGUAUUUUUAUGAUCUUCGUAUACUCACACUUCGCUUGUAUUGUAAAAGG: 0.802
GAGAACCGCCUUUCUCAUAUUUCCUGAAUGGGGUUUGACUCUAUUUGGGGAAAACAUUGCUUUUGGUCCCCCUCCCCAAUAUGCACACCUGCCUUUGCCACUACAUAGGC: 0.546
CUUGCUAGGCAACCCUAAAUUGGGAAGCAAGUAGCUAGUAUAAAGGCCCUCAAUUGUAGUUGUUUCCAGCUGAAUUAAGAGCUUUAAAGUUUCUGGCAUUAGCAGAUGAU: 0.214
CCAUCCUCACCAUCGCCUUCCCUUUUCUCCUGCACCCCUGUAGUCUACCUCUACAGUCUCCAUGACCCCCAGCCUCUUAGCCCCUGCACCUGUCGUUUAACCCUGUCAUG: 1.91

Series 5
Target: Histone acetyltransferase KAT6A, winged helix 1, GST fusion (KAT6A, Homo sapiens, UniProt Q92794, residues 1-85)
Method: protein binding microarray
Form: double-stranded DNA, one strand shown
Matrix: in vitro
Concentration: not given
Notes: 8-mer, flanks averaged, mean of 2 arrays, mostly near background
Relative to: not given
Direction: higher = stronger binding
Quantity: E-score
Construct (chain): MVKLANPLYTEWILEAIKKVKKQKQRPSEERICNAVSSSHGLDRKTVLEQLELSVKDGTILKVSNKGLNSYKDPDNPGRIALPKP
CTGGGGCC: 0.0257
ATCACATA: -0.11
ATTTACTA: -0.0677
AGCCATGA: -0.151
AGGCTCTC: 0.00451
CAGACCTG: 0.0304
CGTGCTCC: -0.0606
GCGGACAA: 0.115
CTCGAATA: -0.134
CTAGTTGC: -0.126
GCTGGTGA: -0.17
ACGTACGT: -0.112
CAAGTCGC: -0.019
AGCGGTTC: 0.0959
GTAGCCGA: 0.104
GCCCCGAC: 0.247
GACCTCCA: -0.065
AGTATGCA: -0.13
GGTGAGGA: -0.0883
ACTTGCGC: 0.33
GGGAGTAC: 0.136
CAGGGACG: 0.0552
ACCTTGAG: -0.168
CGAGCACG: 0.102

Some of these lines once more (series 2):
Y141W: -6.2%
N22C: 9.48%
G21K: 24.2%
P50G: 0.972%
A30D: 3.9%
E109R: -3.01%
E125G: 30.5%
V142E: 3.56%
A158R: 1.02%
L94D: -3.78%
V118F: 4.28%
T120P: 0.11%
S171Q: 48%
E14P: -2.19%
